Measurements collected from several papers.
Each numbered part is a random draw from the data of one study; scales do not carry over between parts.

Study 1 — technique: aptamer microarray, sandwich; molecule type: DNA with 2'F-ANA; matrix: in vitro; tested at: 200 nM; with: Cy3 exosite-II aptamer, 400 nM; reading: higher = stronger binding; oligonucleotide: GGTTGGTGTGGTTGG
Target: Prothrombin, mature alpha-thrombin (F2, Homo sapiens, UniProt P00734)
Notes: whole 15-mer aptamer, many near background
For `2'F-ANA at 1 4 5 6 13`, “mean fluorescence intensity” read 46.8 a.u.
`2'F-ANA at 1 2 3 5 8 10 11 12 14` — result for “mean fluorescence intensity”: 95.6 a.u.
For `2'F-ANA at 1 2 3 6 7 8 9 10 12 15`, “mean fluorescence intensity” read 87.2 a.u.
`2'F-ANA at 1 3 4 5 9 10 12 15`: “mean fluorescence intensity” 56.6 a.u.
Under “mean fluorescence intensity”, `2'F-ANA at 1 2 3 4 6 11 13 14` is recorded as 84.1 a.u.
`2'F-ANA at 3 4 6 8 9 12` — result for “mean fluorescence intensity”: 874 a.u.

Study 2 — technique: protein binding microarray; molecule type: double-stranded DNA, one strand shown; matrix: in vitro; tested at: not given; relative to: not given; reading: higher = stronger binding
Target: Histone acetyltransferase KAT6A, both winged helices, GST fusion (KAT6A, Homo sapiens, UniProt Q92794, residues 1-181)
Notes: 8-mer, flanks averaged, mean of 2 arrays, mostly near background
Target sequence (chain): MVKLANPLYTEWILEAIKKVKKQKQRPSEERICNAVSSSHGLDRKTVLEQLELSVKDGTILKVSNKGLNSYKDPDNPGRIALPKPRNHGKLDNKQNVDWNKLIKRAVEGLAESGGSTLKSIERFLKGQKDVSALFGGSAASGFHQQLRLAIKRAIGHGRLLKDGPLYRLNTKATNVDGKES
`AGCTTACA` has an E-score of -0.144.
`ATATAGTG` has an E-score of 0.022.
`GCGTGAGC` has an E-score of 0.284.
For `CTGCTAGA`, the E-score was -0.0333.
For `GCTTAAGC`, the E-score was 0.18.
`AGGGGGAT` has an E-score of -0.211.
For `CGGCACCA`, the E-score was 0.205.

Study 3 — technique: protein-binding microarray; molecule type: double-stranded DNA, one strand shown; matrix: in vitro; tested at: 940 nM top; notes: 60-bp whole probe; with: salmon DNA 0.4 mg/ml; relative to: random background probes; reading: higher = stronger binding; constant ends, left off below: GCCTAGCAC … GTCTTGATTCGCTTGACGCTGCTG
Target: Interferon regulatory factor 5, full length, phosphomimetic (IRF5, Homo sapiens, UniProt Q13568-2, residues 1-514, S451D/S453D/S456D/S462D)
`GGGATTTTGTCCTCCCCTCCCGTGCTA` — result for “fitted relative affinity”: -0.0759 z-score.
`TCACTTTACACACATCATACTGTGCTA` — result for “fitted relative affinity”: 1.45 z-score.
`TCTGTTTCTGATATGGTATGGTGCTAG` — result for “fitted relative affinity”: 1.23 z-score.
Under “fitted relative affinity”, `TTAGGACTGGGAATCGGTTAGTGCTAG` is recorded as -0.342 z-score.
`GACTGACTGCTTATCCTGACGTGCTAG`: “fitted relative affinity” -0.0331 z-score.
For `GACGATTTCAGGTTCGAGACGTGCTAG`, “fitted relative affinity” read 0.224 z-score.

Mixed results
`PhoQ, residues 284 288 289 292 302 303 SNSSNI` has a fold induction of 1.55 (PhoP, residues 12 14 15 18 19 IQFRS (Escherichia coli, UniProt P23836); Sort-seq, measured: YFP reporter; E. coli; PhoQ-PhoP variant library, with: 10 µM Mg2+; relative to: high Mg2+ state, higher = stronger signaling).

Repeated from above (study 2):
`AGCTTACA` has an E-score of -0.144.
